Measurements gathered from unrelated publications.
Each line is one published result; not all experiments were run side by side.
Target: Prostaglandin G/H synthase 2 (PTGS2, Homo sapiens, UniProt P35354)
Chain of UniProt P35354 (whole entry, looked up): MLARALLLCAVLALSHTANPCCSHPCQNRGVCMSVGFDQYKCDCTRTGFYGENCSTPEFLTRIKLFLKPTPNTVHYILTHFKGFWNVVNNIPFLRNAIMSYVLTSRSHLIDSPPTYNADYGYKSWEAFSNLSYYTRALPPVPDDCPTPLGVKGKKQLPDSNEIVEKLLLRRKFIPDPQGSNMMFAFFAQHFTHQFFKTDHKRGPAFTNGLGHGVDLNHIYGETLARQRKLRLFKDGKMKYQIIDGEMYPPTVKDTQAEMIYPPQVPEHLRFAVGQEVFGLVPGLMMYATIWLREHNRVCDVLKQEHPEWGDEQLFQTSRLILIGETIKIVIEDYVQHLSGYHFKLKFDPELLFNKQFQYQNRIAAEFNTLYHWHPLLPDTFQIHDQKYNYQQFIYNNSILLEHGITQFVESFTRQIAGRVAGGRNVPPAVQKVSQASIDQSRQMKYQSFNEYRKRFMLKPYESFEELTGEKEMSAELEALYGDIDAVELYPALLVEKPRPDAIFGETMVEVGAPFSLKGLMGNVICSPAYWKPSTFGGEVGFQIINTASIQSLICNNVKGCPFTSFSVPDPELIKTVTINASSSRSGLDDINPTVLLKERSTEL
Read-out: enzyme activity
Action: inhibitor

Compound	test	IC50 [µM]
c1ccc(-c2ccc(/N=c3\oc4ccccc4cc3-c3ccccc3)cc2)cc1	–	0.0113
Fc1ccc(Nc2c(Cl)cccc2Cl)c(Cc2nnn[nH]2)c1	fluorescence	48
COc1cc2c(=O)oc3c(OC)c(OC)cc4c(=O)oc(c1OC)c2c34	fluorescence	16.5
O=C(c1ccncc1)N1N=C2/C(=C/c3ccc4ccccc4c3)CCCC2C1c1ccc2ccccc2c1 (stereo not drawn)	–	0.088
Fc1ccc(NCc2cn(-c3ccccc3)nc2-c2ccc(OCc3ccccc3)cc2)cc1Cl	absorbance	4.25
COc1cc(O)c2c(c1)O[C@H](c1ccccc1)CC2=O	fluorescence	34.1
O=C(O)Cc1cc(F)ccc1Nc1c(Cl)cccc1Cl	fluorescence	7.8
c1ccc(-c2cc3ccccc3o/c2=N\c2ccc3ccccc3c2)cc1	–	0.0162
O=C1CCCCC1C(C[N+](=O)[O-])c1ccccc1 (stereo not drawn)	–	49.7
C(=C\c1ccccc1)/N=c1\oc2ccccc2cc1-c1ccccc1	–	0.0183
Fc1ccc(NCc2cn(-c3ccccc3)nc2-c2ccc(OCc3ccccc3)cc2)cc1	absorbance	4.12
Fc1ccc(/N=c2\oc3ccccc3cc2-c2ccccc2)cc1	–	0.0111
NS(=O)(=O)c1ccc(-n2cc(CNc3ccc(Cl)cc3)c(-c3ccc(OCc4ccccc4)cc3)n2)cc1	absorbance	2.99
c1ccc(-c2cc3ccccc3o/c2=N\c2cccnc2)cc1	–	0.0096
Clc1ccccc1NCc1cn(-c2ccccc2)nc1-c1ccc(OCc2ccccc2)cc1	absorbance	5.03

For quick reference, copied from above:
Compound	test	IC50 [µM]
O=C1CCCCC1C(C[N+](=O)[O-])c1ccccc1 (stereo not drawn)	–	49.7
C(=C\c1ccccc1)/N=c1\oc2ccccc2cc1-c1ccccc1	–	0.0183
